Assay results collected from several papers.
Every numbered part comes from another study and shows a few of its results, in no order.
Chain of UniProt P42336 (whole entry, unmodified, looked up): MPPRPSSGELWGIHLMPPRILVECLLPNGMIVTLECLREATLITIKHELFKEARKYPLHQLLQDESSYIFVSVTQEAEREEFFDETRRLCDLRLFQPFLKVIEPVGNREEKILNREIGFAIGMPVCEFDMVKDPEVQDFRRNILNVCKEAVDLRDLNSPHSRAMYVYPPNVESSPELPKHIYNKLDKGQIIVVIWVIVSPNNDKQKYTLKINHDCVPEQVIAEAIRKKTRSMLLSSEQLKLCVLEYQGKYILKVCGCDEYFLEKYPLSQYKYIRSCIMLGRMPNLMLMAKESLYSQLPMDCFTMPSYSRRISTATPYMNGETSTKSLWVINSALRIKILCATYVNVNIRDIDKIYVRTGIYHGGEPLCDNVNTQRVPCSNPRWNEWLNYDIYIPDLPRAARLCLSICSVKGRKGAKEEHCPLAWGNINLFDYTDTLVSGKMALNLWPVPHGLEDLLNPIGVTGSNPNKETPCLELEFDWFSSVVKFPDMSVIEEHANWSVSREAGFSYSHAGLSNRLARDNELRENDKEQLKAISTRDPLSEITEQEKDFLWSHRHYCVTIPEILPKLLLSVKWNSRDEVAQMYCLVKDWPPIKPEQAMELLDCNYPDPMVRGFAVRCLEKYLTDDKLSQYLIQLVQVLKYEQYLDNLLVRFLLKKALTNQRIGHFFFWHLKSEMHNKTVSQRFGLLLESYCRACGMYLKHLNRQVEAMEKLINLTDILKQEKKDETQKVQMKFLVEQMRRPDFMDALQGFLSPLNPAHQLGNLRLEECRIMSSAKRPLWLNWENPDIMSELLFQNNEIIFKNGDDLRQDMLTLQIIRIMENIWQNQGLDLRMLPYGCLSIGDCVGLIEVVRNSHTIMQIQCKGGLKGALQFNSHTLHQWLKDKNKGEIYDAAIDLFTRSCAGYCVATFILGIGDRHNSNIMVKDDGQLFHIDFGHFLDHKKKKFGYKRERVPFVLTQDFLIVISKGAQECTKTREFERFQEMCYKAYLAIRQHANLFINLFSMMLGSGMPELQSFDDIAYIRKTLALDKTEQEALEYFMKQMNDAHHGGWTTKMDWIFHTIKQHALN
Chain of UniProt O95382 (whole entry, looked up): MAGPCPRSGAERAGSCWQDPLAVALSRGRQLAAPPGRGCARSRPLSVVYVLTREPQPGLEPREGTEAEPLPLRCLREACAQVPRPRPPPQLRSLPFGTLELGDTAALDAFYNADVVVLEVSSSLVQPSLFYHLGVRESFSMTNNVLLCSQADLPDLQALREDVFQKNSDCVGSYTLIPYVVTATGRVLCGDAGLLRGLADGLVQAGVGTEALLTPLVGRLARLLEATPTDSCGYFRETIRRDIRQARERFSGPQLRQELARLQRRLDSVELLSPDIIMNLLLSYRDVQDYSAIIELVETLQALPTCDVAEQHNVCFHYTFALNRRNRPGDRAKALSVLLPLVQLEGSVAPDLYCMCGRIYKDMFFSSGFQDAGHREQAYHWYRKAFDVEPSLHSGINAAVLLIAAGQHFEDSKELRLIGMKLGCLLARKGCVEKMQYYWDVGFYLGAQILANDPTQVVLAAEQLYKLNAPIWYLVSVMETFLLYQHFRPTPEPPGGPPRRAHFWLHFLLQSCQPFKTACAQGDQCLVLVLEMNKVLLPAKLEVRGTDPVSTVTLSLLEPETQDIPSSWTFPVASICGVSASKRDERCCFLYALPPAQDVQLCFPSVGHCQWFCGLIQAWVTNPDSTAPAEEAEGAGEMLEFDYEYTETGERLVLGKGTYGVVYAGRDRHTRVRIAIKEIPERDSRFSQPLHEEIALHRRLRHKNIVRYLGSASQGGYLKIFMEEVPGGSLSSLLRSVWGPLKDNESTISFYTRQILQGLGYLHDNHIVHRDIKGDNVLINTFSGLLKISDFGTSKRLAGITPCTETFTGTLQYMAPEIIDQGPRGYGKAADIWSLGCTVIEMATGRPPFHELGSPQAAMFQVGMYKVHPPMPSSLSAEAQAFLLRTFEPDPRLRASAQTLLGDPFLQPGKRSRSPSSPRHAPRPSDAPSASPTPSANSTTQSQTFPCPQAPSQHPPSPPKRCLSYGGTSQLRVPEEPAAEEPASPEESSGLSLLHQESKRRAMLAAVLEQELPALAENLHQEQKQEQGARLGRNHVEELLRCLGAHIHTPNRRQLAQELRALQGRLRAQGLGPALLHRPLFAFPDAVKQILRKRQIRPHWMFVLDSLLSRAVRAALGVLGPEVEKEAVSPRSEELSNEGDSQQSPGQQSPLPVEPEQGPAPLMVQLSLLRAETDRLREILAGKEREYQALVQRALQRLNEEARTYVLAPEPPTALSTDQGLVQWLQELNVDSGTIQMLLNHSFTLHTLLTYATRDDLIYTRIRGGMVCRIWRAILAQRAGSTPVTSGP
Chain of UniProt O75460 (whole entry, looked up): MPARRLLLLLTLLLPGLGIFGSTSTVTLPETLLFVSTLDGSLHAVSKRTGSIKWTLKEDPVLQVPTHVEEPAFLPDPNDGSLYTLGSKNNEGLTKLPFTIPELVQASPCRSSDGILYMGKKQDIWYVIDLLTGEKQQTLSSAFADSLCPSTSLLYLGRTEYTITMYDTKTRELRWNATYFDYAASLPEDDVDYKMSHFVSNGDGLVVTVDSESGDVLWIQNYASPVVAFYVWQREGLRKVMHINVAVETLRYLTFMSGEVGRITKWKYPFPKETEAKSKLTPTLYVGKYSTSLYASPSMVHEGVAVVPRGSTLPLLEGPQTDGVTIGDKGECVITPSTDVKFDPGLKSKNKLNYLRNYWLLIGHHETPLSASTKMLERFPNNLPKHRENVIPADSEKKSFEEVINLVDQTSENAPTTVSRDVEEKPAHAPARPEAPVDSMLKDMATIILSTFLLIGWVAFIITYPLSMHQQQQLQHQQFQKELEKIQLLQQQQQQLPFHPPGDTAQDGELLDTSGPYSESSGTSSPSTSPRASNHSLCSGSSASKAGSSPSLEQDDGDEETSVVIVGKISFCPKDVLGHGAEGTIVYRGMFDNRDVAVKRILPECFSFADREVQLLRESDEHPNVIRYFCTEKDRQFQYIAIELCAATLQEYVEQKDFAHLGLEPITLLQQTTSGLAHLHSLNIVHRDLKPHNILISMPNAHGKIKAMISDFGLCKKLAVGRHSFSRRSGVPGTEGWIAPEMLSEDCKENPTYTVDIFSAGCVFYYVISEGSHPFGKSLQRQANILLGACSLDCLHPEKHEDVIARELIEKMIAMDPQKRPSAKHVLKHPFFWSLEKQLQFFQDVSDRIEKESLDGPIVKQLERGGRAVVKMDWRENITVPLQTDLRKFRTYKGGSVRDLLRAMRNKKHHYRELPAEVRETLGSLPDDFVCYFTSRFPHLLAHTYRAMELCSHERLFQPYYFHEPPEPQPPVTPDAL
Chain of UniProt Q9UK32 (whole entry, looked up): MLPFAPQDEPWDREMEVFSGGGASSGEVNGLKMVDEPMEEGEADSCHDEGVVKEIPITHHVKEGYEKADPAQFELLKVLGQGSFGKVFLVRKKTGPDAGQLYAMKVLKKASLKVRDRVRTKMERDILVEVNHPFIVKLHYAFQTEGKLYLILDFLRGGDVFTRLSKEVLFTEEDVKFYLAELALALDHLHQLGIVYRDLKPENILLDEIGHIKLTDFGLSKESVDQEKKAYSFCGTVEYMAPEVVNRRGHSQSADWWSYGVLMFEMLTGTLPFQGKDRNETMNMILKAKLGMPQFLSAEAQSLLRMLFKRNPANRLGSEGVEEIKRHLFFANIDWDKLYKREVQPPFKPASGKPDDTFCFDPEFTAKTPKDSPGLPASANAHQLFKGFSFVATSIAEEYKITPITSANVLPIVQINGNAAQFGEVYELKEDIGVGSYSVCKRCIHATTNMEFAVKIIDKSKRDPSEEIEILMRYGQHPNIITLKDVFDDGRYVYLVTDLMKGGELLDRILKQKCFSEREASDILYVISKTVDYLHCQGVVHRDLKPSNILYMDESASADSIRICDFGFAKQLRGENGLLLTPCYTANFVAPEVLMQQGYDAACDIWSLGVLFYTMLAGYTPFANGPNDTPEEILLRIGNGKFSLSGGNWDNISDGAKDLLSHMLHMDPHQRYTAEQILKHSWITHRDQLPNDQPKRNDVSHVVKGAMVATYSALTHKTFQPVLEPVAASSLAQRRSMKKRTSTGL
Chain of UniProt Q8N752 (whole entry, looked up): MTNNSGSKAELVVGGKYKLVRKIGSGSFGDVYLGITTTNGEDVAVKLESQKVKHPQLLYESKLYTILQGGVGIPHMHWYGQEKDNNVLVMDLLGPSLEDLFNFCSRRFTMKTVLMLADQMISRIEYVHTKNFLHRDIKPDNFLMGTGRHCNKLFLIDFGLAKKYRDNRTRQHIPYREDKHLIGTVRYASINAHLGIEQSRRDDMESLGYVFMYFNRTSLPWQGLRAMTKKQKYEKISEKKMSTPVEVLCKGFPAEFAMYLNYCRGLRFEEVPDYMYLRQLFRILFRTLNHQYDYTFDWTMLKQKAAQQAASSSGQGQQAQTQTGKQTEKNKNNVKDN

Set 1
SMILES: CN(C)C(=O)Cn1cc(-c2nc(C3(c4ccc(-c5cnc(N)nc5)cc4)CC3)no2)cn1
Technique: competition with immobilised ligand
Tested at: 1 µM
target	observed	remaining binding
Mitogen-activated protein kinase kinase kinase 6 (MAP3K6, Homo sapiens, UniProt O95382)	cell-free assay	78%
Phosphatidylinositol 4,5-bisphosphate 3-kinase catalytic subunit alpha isoform (PIK3CA, Homo sapiens, UniProt P42336, E542K)	cell-free assay	76%
Ephrin type-A receptor 8 (EPHA8, Homo sapiens, UniProt P29322)	cell-free assay	87%
Ribosomal protein S6 kinase alpha-4, N-terminal kinase domain (RPS6KA4, Homo sapiens, UniProt O75676)	cell-free assay	91%
Casein kinase I isoform alpha-like (CSNK1A1L, Homo sapiens, UniProt Q8N752)	cell-free assay	98%
Bone morphogenetic protein receptor type-2 (BMPR2, Homo sapiens, UniProt Q13873)	cell-free assay	93%
MAP/microtubule affinity-regulating kinase 4 (MARK4, Homo sapiens, UniProt Q96L34)	cell-free assay	96%
Ribosomal protein S6 kinase alpha-6, C-terminal kinase domain (RPS6KA6, Homo sapiens, UniProt Q9UK32)	cell-free assay	100%
Wee1-like protein kinase (WEE1, Homo sapiens, UniProt P30291)	cell-free assay	87%
Tyrosine-protein kinase TXK (TXK, Homo sapiens, UniProt P42681)	binding	98%
Epidermal growth factor receptor (EGFR, Homo sapiens, UniProt P00533, del746-750)	cell-free assay	67%
Phosphatidylinositol 4,5-bisphosphate 3-kinase catalytic subunit alpha isoform (PIK3CA, Homo sapiens, UniProt P42336, Q546K)	cell-free assay	100%
Mitogen-activated protein kinase kinase kinase 19 (MAP3K19, Homo sapiens, UniProt Q56UN5)	cell-free assay	73%
Serine/threonine-protein kinase/endoribonuclease IRE1 (ERN1, Homo sapiens, UniProt O75460)	cell-free assay	69%
Aurora kinase C (AURKC, Homo sapiens, UniProt Q9UQB9)	cell-free assay	100%
Epidermal growth factor receptor (EGFR, Homo sapiens, UniProt P00533, L858R)	cell-free assay	86%
Serine/threonine-protein kinase PLK1 (PLK1, Homo sapiens, UniProt P53350)	cell-free assay	82%
Myosin light chain kinase family member 4 (MYLK4, Homo sapiens, UniProt Q86YV6)	cell-free assay	100%

Set 2
Target: Serine/threonine-protein kinase 24 (STK24, Homo sapiens, UniProt Q9Y6E0)
Chain of UniProt Q9Y6E0 (whole entry, looked up): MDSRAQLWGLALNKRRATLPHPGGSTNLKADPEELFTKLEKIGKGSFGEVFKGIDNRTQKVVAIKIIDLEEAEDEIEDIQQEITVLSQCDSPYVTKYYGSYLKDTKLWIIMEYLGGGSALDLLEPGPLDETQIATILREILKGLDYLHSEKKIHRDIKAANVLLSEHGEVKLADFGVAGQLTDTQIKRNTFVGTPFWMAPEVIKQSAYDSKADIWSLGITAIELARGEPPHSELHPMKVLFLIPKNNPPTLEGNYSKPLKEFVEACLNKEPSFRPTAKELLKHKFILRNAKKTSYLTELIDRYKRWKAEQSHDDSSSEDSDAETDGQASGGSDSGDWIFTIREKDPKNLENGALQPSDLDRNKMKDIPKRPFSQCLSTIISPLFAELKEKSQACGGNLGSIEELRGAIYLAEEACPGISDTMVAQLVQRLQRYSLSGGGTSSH
Observed: enzyme activity
Mode: inhibitor
Tested at: 0.5 µM
Reference: control
SMILES	remaining activity [%]
Nc1cccc(-c2cc3c(Oc4cccc(O)c4)ncnc3[nH]2)c1	64.2
N#C/C(=C\c1ccc(O)c(O)c1)C(=O)NCc1ccccc1	100
O=C1C(Cl)=C(N2C(=O)CCC2=O)C(=O)c2ccccc21	87
N#Cc1c(NC(=O)c2cccc3ccccc23)sc2c1CCCC2	90.3
CCOc1nc(NC(=O)Cc2cc(OC)ccc2OC)cc(N)c1C#N	99.5
Ic1cccc(CSc2nnc(-c3ccncc3)o2)c1	108
O=C(Nc1cccc(Nc2nccc(Nc3cccc(C(F)(F)F)c3)n2)c1)C1CC1	98.3
O=C(NC(NC(=S)Nc1ccc(F)c([N+](=O)[O-])c1)C(Cl)(Cl)Cl)C(c1ccccc1)c1ccccc1 (stereo not drawn)	92.8
c1ccc(-c2[nH]ncc2-c2ccnc3ccccc23)nc1	96.8
COc1cc2c(cc1OC)-c1[nH]nc(Nc3cccc(F)c3)c1C2	99.9
Cc1cc2ncc(-c3ccccc3)nc2cc1C	94.5
Cc1nc2cc3nc(-c4cccs4)cnc3cc2n1C	103

Set 3
SMILES: CC(=O)N[C@@H](Cc1c[nH]c2ccccc12)C(=O)N[C@@H](CCC(=O)C=[N+]=[N-])C(=O)OC(C)C
Host: mouse, EL4 tumour-bearing
Sample: EL4 tumour
Dose: dose not given
Reference: vehicle
item	log2 fold change
2'-O-methyluridine	-0.932
5-oxoproline	-0.251
N-acetylserine	-0.522
FGAR	4.11
N6-succinyladenosine	-0.114

Further values, each from its own experiment
Compound	target	observed	tested at	measurement	value
CNCCC[C@]12CC[C@H](c3ccccc31)c1ccccc12	DNA polymerase theta, ATPase domain (POLQ, Homo sapiens, UniProt O75417)	enzyme activity	77 µM	remaining activity	107%

For quick reference, copied from above (set 2):
SMILES	remaining activity [%]
O=C1C(Cl)=C(N2C(=O)CCC2=O)C(=O)c2ccccc21	87
N#Cc1c(NC(=O)c2cccc3ccccc23)sc2c1CCCC2	90.3
CCOc1nc(NC(=O)Cc2cc(OC)ccc2OC)cc(N)c1C#N	99.5
Ic1cccc(CSc2nnc(-c3ccncc3)o2)c1	108
